Results from different studies.
Every numbered part comes from another study and shows a few of its results, in no order.
Chain of UniProt P53779 (whole entry, looked up): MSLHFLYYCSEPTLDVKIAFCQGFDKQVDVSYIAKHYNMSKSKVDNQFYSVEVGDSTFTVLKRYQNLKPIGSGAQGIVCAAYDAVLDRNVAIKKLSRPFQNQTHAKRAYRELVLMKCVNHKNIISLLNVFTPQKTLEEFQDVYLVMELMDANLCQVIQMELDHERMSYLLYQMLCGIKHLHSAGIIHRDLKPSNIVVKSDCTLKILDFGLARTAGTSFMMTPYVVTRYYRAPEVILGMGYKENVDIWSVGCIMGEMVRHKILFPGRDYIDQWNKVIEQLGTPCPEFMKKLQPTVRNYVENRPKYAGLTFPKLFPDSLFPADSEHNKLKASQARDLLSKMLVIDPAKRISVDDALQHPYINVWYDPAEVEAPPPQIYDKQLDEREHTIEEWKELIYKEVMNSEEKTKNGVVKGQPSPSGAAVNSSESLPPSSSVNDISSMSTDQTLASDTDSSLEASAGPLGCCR
Chain of UniProt P07949 (whole entry, unmodified, looked up): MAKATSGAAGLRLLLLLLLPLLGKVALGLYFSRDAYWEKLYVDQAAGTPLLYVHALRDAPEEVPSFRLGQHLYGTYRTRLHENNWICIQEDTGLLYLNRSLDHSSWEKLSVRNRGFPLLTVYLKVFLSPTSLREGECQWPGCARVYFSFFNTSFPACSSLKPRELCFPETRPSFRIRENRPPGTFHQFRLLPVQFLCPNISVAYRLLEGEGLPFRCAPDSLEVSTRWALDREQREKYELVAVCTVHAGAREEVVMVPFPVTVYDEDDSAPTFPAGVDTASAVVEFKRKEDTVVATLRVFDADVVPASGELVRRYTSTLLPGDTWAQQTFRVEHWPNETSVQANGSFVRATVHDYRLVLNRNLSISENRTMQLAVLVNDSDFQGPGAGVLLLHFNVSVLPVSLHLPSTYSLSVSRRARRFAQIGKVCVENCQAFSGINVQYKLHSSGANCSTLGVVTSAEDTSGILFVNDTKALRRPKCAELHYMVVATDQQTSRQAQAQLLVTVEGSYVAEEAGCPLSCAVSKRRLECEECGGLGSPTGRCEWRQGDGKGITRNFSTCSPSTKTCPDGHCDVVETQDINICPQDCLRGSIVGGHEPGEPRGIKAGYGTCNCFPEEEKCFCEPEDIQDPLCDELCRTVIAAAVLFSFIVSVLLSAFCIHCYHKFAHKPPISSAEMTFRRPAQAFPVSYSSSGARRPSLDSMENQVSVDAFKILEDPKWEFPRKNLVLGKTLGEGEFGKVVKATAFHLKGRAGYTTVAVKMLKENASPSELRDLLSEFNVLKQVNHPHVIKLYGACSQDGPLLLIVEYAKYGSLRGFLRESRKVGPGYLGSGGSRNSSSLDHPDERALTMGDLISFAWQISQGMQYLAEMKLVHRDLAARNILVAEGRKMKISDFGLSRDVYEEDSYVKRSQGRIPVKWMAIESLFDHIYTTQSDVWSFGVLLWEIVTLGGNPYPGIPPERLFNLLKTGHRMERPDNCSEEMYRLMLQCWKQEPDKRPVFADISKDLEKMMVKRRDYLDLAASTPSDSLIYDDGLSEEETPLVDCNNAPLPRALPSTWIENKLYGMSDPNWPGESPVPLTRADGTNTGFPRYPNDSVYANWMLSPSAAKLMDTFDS
Chain of UniProt P11802 (whole entry, looked up): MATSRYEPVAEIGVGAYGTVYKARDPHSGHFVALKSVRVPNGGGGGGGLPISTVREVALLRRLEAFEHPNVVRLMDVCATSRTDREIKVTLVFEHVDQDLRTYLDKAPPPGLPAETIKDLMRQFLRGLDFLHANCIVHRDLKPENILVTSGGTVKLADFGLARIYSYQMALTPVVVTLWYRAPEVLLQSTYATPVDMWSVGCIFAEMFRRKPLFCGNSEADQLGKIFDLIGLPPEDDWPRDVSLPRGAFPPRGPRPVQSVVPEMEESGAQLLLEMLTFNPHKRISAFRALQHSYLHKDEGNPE
Chain of UniProt P50613 (whole entry, looked up): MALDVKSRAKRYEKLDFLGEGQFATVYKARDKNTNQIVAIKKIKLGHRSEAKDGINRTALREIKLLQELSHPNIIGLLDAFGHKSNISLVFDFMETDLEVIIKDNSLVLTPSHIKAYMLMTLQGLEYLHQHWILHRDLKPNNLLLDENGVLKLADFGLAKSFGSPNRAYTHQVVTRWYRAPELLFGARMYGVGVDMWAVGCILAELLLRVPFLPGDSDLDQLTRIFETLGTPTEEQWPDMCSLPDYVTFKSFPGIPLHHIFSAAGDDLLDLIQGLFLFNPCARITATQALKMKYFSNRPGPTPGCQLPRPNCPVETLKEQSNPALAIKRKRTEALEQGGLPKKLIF
Chain of UniProt P57078 (whole entry, looked up): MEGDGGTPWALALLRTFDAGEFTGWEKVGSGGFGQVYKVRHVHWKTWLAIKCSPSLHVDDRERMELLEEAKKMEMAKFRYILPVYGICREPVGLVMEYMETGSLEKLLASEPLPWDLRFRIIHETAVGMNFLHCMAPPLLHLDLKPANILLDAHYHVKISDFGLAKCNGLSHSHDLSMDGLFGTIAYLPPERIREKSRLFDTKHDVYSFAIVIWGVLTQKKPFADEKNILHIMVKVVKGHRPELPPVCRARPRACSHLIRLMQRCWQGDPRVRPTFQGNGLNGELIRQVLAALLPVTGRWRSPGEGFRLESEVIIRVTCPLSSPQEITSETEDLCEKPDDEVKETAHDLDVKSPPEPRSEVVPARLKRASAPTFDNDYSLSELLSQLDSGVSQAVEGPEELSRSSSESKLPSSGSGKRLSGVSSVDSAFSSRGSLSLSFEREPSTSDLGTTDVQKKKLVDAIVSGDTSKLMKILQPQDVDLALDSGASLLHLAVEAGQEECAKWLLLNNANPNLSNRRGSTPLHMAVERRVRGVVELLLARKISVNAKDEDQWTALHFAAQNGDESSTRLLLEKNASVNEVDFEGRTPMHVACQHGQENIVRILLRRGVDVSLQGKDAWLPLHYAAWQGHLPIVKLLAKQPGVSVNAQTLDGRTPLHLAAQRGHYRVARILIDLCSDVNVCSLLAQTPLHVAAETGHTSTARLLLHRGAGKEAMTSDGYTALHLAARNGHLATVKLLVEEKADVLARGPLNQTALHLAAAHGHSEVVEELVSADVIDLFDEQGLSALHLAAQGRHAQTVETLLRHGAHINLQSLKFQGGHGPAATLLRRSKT
Chain of UniProt O14965 (whole entry, looked up): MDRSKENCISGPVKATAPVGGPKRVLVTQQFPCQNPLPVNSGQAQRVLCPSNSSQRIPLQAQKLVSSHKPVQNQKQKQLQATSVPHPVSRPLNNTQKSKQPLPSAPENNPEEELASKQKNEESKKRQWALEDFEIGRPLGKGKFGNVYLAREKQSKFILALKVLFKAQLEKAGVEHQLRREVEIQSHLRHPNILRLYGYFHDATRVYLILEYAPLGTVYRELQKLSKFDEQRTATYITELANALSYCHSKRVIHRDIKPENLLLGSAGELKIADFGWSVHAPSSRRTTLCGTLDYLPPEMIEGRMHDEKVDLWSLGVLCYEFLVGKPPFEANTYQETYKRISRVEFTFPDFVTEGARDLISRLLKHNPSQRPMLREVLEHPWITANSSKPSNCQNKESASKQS
Chain of UniProt O43683 (whole entry, looked up): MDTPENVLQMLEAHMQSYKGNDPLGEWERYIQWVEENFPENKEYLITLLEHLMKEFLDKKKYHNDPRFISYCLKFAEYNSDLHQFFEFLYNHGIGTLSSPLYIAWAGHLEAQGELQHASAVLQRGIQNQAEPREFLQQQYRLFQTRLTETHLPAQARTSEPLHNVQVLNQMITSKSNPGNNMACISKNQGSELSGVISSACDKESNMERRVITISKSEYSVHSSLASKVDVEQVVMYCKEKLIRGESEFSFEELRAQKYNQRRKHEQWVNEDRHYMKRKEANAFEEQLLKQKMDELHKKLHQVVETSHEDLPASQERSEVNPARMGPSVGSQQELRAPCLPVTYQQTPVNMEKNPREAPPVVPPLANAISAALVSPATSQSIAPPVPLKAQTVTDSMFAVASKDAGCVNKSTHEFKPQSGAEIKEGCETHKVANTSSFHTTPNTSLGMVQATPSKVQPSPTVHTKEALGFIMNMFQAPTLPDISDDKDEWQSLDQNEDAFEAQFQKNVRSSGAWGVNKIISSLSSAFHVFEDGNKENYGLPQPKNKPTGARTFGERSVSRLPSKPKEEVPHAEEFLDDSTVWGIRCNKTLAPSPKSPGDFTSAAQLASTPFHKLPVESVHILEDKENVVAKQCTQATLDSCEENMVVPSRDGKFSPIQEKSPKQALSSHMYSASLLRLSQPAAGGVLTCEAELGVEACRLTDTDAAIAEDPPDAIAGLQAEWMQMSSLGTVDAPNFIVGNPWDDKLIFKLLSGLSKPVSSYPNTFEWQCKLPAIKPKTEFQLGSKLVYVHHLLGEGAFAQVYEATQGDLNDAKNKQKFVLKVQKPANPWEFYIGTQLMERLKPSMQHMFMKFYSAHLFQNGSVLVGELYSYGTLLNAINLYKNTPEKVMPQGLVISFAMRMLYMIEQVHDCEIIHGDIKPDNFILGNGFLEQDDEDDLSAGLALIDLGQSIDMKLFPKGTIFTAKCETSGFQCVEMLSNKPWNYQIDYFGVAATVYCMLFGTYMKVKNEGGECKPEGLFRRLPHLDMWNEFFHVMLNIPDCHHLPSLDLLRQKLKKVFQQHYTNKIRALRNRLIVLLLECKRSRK
Chain of UniProt Q8IU85 (whole entry, looked up): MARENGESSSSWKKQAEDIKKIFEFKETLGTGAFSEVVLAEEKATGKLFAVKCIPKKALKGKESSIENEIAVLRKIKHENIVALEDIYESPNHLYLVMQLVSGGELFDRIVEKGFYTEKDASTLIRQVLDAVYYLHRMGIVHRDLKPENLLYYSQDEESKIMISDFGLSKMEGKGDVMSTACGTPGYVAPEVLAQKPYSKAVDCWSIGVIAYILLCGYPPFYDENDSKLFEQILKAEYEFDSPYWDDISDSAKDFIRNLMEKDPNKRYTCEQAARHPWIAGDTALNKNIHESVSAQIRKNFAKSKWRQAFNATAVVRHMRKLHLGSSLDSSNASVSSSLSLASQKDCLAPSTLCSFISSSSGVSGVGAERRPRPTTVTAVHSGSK

Sample 1 — Structure (SMILES): N#CC(=C(N)Sc1ccc(N)cc1)c1ccccc1C(F)(F)F; read-out: enzyme activity; mode: inhibitor; tested at: 0.5 µM; relative to: control
target | remaining activity
NEK9 (Homo sapiens, UniProt Q8TD19) | 99.2%
ROS1 (Homo sapiens, UniProt P08922) | 94.4%
CAMK1D (Homo sapiens, UniProt Q8IU85) | 129%
CDK7 (Homo sapiens, UniProt P50613) | 100%
Aurora kinase A (AURKA, Homo sapiens, UniProt O14965) | 103%
ROCK2 (Homo sapiens, UniProt O75116) | 100%
HIPK3 (Homo sapiens, UniProt Q9H422) | 114%
PRKD1 (Homo sapiens, UniProt Q15139) | 103%
GRK5 (Homo sapiens, UniProt P34947) | 102%
RET (Homo sapiens, UniProt P07949) | 101%
MAPK10 (Homo sapiens, UniProt P53779) | 94.7%
EGFR (Homo sapiens, UniProt P00533) | 97.3%
MAP3K2 (Homo sapiens, UniProt Q9Y2U5) | 115%
Cyclin-dependent kinase 2, with cyclin A (CDK2, Homo sapiens, UniProt P24941) | 95.9%
PTK2B (Homo sapiens, UniProt Q14289) | 105%

Sample 2 — method: competition with immobilised ligand; tested at: 0.1 µM
Compound: Cn1cc(Cl)c2c(Oc3c(F)cc(Nc4cc(Cl)nc(N)n4)cc3F)ccnc21
target | test | remaining binding [%]
RET (Homo sapiens, UniProt P07949, V804L) | cell-free assay | 91
KIT (Homo sapiens, UniProt P10721, V559D) | cell-free assay | 96
MARK4 (Homo sapiens, UniProt Q96L34) | cell-free assay | 100
RIPK4 (Homo sapiens, UniProt P57078) | cell-free assay | 100
CDK4 (Homo sapiens, UniProt P11802) | cell-free assay | 85
LRRK2 (Homo sapiens, UniProt Q5S007, G2019S) | cell-free assay | 100
CILK1 (Homo sapiens, UniProt Q9UPZ9) | binding | 100
MAPK10 (Homo sapiens, UniProt P53779) | cell-free assay | 80
MAPK15 (Homo sapiens, UniProt Q8TD08) | cell-free assay | 100
EGFR (Homo sapiens, UniProt P00533, L858R/T790M) | cell-free assay | 84
TAOK2 (Homo sapiens, UniProt Q9UL54) | cell-free assay | 100
DYRK1A (Homo sapiens, UniProt Q13627) | cell-free assay | 98
PRPF4B (Homo sapiens, UniProt Q13523) | cell-free assay | 81
EPHB1 (Homo sapiens, UniProt P54762) | cell-free assay | 96
HUNK (Homo sapiens, UniProt P57058) | cell-free assay | 100
BUB1 (Homo sapiens, UniProt O43683) | cell-free assay | 82

Sample 3 — species: mouse; medium: microsomes or S9; tested at: 2 µM; time: 0.5 h
SMILES | remaining compound
COc1ccc(NC(=O)N2Cc3c(sc4c3CCCC4)-n3cccc3C2c2cccs2)c(OC)c1 (stereo not drawn) | 7.7%
COC(=O)C(O)c1c(C)nc2[nH]c3c(c2c1Cl)CCCC3 (stereo not drawn) | 3.25%
CNC[C@@H]1C[C@H](F)CN1C(=O)Cc1n[nH]c2ccccc12 | > 100%
C/C(=C\c1c[nH]c(-c2ccccc2)n1)c1cnccn1 | 13.3%
Nc1nc(N2CCN(C3CCCCC3)CC2)nc2ccccc12 | 0.0283%
CC1CN(C(=O)c2cnc3n(c2=O)CCS3)C(C)CO1 (stereo not drawn) | 93.9%
COc1ccc(/C=C/c2nc(-c3cccnc3)no2)cc1OC | 35.3%

Mixed results
SMILES | test | test system | conditions | quantity | value
CC(C)n1cnc(-c2ccc(F)cc2)c1-c1ncc(C(=O)Nc2ccc(N3CCN(C)CC3)cc2)[nH]1 | measured: chronic gastritis | human, idiopathic pulmonary fibrosis | dose not given, trial, all arms pooled | treatment-emergent AE | 0%

A few entries again (sample 1):
target | remaining activity
EGFR (Homo sapiens, UniProt P00533) | 97.3%
MAP3K2 (Homo sapiens, UniProt Q9Y2U5) | 115%
Cyclin-dependent kinase 2, with cyclin A (CDK2, Homo sapiens, UniProt P24941) | 95.9%
